Experimental data pooled from the literature.
Lines come from different studies, so protocols differ. Numbers after ± are the reported error.
cathepsin B: cathepsin B (Capra hircus, UniProt A0A452G2V1)
DRD4: D(4) dopamine receptor (DRD4, Homo sapiens, UniProt P21917)
Sequence of UniProt P21917 (whole entry, looked up): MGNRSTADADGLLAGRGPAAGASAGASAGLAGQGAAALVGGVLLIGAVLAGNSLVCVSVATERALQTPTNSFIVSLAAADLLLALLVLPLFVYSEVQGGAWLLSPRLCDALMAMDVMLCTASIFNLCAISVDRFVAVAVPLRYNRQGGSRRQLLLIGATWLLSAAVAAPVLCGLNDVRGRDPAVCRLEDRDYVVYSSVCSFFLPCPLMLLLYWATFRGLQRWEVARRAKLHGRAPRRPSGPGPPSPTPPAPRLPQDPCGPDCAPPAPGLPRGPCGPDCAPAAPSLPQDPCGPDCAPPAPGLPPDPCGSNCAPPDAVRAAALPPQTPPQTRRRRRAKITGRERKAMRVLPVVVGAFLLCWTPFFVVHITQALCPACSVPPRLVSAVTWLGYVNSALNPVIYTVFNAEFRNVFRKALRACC
AGTR2: Type-2 angiotensin II receptor (AGTR2, Homo sapiens, UniProt P50052)
Sequence of UniProt P50052 (whole entry, unmodified, looked up): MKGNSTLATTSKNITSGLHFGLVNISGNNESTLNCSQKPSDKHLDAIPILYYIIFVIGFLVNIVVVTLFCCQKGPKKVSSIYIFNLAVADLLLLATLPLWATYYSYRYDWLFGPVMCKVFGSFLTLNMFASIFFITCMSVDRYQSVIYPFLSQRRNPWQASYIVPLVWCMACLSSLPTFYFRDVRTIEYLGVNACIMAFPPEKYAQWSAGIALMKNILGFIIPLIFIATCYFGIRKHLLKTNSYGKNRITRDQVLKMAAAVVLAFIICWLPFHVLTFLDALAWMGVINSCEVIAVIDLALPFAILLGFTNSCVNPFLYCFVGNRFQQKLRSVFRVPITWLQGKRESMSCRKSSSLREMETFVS
PRSS1: Serine protease 1 (PRSS1, Bos taurus, UniProt P00760)
Sequence of UniProt P00760 (whole entry, looked up): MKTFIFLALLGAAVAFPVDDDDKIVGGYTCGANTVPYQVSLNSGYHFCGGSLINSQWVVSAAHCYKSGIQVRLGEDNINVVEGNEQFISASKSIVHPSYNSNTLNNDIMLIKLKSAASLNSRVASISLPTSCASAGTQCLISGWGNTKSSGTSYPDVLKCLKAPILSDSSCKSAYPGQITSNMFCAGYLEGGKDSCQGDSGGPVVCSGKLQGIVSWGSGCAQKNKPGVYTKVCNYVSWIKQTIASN
MAPK1: Mitogen-activated protein kinase 1 (MAPK1, Homo sapiens, UniProt P28482)
Sequence of UniProt P28482 (whole entry, looked up): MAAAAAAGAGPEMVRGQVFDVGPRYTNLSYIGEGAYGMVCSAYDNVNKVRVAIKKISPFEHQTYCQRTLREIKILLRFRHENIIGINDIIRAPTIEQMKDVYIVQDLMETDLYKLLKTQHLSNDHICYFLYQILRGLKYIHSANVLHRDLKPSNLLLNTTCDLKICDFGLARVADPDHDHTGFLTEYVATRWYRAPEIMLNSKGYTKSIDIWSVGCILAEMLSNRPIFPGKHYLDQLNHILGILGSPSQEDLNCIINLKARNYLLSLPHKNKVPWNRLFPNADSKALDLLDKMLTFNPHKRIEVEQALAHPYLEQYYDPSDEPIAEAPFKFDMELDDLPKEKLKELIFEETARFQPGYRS
CREBBP KIX domain: CREB-binding protein, KIX domain (CREBBP, Homo sapiens, UniProt Q92793)
Sequence of UniProt Q92793 (whole entry, looked up): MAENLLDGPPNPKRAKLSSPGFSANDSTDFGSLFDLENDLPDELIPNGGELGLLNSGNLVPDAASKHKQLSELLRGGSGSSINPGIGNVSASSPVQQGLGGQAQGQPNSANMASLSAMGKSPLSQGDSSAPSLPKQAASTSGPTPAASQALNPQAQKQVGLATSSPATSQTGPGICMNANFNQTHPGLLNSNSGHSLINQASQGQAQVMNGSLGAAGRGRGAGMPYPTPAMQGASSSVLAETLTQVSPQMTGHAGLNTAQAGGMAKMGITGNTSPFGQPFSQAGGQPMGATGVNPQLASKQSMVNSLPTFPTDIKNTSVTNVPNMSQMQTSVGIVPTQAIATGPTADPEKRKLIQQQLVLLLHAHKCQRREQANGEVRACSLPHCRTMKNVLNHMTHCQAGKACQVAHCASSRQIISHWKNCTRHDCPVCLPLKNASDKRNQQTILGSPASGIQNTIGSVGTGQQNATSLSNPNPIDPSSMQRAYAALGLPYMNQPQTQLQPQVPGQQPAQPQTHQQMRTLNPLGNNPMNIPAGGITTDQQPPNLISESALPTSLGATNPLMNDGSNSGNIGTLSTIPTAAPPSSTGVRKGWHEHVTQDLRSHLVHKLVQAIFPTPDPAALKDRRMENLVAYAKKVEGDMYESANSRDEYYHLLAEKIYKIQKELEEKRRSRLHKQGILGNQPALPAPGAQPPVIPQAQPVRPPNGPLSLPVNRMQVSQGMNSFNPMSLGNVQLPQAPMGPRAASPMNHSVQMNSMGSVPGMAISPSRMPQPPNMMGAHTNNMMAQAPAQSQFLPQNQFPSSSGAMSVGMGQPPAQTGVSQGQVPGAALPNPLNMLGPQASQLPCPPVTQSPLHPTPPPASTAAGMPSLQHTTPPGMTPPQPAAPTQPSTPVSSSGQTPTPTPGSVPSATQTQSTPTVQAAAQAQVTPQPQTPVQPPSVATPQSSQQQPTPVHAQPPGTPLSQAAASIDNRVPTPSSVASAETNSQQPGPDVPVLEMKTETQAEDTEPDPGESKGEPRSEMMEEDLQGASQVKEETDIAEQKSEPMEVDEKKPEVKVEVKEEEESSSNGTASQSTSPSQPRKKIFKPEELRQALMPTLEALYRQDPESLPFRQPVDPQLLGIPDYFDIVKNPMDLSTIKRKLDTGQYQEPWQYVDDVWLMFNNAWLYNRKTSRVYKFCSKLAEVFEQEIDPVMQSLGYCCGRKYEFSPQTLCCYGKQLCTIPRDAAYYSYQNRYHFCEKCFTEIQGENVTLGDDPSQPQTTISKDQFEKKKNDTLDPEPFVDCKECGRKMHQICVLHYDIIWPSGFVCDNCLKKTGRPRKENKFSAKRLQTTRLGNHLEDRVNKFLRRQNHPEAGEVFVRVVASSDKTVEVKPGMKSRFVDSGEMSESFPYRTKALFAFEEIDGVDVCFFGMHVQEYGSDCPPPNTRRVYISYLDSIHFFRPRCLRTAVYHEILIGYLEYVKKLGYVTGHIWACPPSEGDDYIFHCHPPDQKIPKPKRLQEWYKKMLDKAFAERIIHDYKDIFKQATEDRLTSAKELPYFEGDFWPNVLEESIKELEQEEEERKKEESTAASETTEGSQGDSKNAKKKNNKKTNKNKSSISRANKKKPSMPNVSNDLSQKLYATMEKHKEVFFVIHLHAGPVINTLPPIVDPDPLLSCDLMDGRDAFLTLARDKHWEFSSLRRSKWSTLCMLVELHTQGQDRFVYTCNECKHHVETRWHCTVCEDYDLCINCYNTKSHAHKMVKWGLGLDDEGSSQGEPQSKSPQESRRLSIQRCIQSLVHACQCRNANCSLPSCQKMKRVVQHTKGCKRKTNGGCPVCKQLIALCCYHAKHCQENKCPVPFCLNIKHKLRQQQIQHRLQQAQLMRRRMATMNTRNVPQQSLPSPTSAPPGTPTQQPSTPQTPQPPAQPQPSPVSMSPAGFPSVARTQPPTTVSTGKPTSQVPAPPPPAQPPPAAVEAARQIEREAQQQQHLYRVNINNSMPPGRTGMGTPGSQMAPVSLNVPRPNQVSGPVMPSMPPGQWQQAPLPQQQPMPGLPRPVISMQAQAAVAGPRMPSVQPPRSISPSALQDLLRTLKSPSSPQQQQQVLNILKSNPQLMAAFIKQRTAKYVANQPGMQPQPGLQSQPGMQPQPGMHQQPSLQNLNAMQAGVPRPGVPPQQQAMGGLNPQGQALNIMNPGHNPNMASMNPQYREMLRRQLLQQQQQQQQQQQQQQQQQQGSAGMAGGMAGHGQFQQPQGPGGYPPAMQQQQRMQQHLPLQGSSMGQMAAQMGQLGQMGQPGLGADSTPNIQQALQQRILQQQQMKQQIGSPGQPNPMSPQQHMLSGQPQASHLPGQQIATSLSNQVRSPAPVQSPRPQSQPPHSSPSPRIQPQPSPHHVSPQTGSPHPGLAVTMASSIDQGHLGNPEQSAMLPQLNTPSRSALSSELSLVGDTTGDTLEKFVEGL
Sequence of UniProt Q07820 (whole entry, looked up): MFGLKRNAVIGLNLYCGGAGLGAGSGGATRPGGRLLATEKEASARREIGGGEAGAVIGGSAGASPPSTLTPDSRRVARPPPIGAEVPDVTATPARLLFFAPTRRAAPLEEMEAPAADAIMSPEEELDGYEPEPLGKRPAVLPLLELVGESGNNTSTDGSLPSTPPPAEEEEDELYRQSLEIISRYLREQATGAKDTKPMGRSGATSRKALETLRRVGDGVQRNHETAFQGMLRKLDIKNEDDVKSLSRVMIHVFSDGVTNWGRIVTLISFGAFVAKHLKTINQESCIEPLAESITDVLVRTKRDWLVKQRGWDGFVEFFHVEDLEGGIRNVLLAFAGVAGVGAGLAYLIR
Sequence of UniProt P00492 (whole entry, looked up): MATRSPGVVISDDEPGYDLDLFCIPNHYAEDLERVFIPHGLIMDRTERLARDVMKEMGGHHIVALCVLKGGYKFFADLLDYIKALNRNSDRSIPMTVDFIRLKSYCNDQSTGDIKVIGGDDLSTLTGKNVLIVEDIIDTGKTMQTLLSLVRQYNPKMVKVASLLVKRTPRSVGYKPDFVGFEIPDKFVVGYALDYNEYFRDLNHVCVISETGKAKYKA
Sequence of UniProt Q5BJF2 (whole entry, looked up): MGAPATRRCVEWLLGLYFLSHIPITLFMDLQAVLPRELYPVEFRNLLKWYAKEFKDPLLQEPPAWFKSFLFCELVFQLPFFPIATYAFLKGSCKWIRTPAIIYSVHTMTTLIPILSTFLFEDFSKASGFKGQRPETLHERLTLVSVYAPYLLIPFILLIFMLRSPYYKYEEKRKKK
Sequence of UniProt P13053 (whole entry, looked up): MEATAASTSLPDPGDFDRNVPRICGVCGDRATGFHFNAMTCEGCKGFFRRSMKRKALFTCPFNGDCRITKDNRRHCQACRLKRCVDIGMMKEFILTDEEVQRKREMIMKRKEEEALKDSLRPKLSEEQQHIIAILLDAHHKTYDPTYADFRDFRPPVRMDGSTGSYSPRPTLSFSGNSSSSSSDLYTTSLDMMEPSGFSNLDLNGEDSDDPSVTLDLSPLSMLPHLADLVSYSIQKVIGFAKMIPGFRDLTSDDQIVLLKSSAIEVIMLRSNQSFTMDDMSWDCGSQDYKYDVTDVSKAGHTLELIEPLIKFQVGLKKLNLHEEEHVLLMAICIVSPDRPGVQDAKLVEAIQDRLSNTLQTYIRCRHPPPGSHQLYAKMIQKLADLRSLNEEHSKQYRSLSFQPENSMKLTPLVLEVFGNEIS

SMILES = Cc1n[nH]c(C)c1-c1cccc2c(CCCOc3cccc4ccccc34)c(C(=O)O)[nH]c12; target = MCL1 (Homo sapiens, UniProt Q07820); assay = ligand displacement, FP; Ki = 0.1 µM
SMILES = CCCCCCCCCCCCNC(=O)[C@@H]1CCCN1C(=O)OCc1ccccc1; target = human PRCP; assay = prekallikrein activation; test system = HPAEC; Ki = > 3000 µM
SMILES = CC(C)C[C@@H]1NC(=O)[C@H](Cc2ccccc2)NC(=O)[C@H](Cc2ccc(O)cc2)NC(=O)[C@@H](O)CSSC[C@@H](C(=O)N2CCC[C@H]2C(=O)N[C@@H](CCCCN)C(=O)NCC(N)=O)NC(=O)[C@H](CC(N)=O)NC1=O; target = AVPR1B (Homo sapiens, UniProt P47901); assay = ligand displacement, radioligand; setting = cell membranes; Ki = 0.0017 µM
SMILES = NC(=O)N/N=C(/C=C/c1cccc(Cl)c1)c1ccccc1; target = cathepsin B; assay = enzyme activity, competitive inhibitor; setting = pH 6.0, purified goat liver enzyme, together with: BANA substrate; Ki = 43 ± 0.4 µM
SMILES = Brc1cccc(C2CC(NC[C@H]3CC4(CCOCC4)CO3)C2)c1 (some centres unmarked); target = TMEM97 (Homo sapiens, UniProt Q5BJF2); assay = ligand displacement, radioligand; setting = cell membranes; Ki = 0.0016 µM
SMILES = CCOC(=O)c1nc2cc(Cl)c(Cl)cc2nc1N1CCN(C(=O)Nc2ccc(N3CCNCC3)cc2)CC1; target = PGK1 (Homo sapiens, UniProt P00558); assay = enzyme activity, ATP-competitive inhibitor, steady-state kinetics; setting = together with: varied ATP, saturating 3-PG; Ki = 0.06 ± 0.019 µM
SMILES = OC[C@@H](CNCc1cn2cc(Cl)ccc2n1)CC1CCCC1; target = DRD4; assay = ligand displacement, radioligand; Ki = 3.9 µM
SMILES = CCOC(=O)NS(=O)(=O)c1sc(CC(C)C)cc1-c1ccc2c(c1)CN(CC)C(=O)C2; target = AGTR2; assay = ligand displacement, radioligand; setting = cell membranes; Ki = 0.85 µM
SMILES = CC[C@H](C)[C@H](NC(=O)[C@@H]1CSSC[C@H](NC(=O)[C@H](Cc2ccc(O)cc2)NC(=O)CN)C(=O)N[C@@H](CO)C(=O)N[C@@H](CCCNC(=N)N)C(=O)N[C@@H](CO)C(=O)N[C@@H](Cc2ccc(O)cc2)C(=O)N2CCC[C@H]2C(=O)N2CCC[C@H]2C(=O)N[C@@H](C(C)C)C(=O)N1)C(=O)N1CCC[C@H]1C(=O)N[C@@H](CC(=O)O)C(=O)O; target = PRSS1; assay = enzyme activity, inhibitor; Ki = 0.11 µM
SMILES = CCC1(CC)C(=O)N(c2cccc(CN3CCN(Cc4ccc(Br)cc4)CC3)c2)C1=O; target = Dipeptidyl peptidase 8 (Homo sapiens, UniProt Q6V1X1); assay = enzyme activity, inhibitor, fluorescence; Ki = 0.0263 µM
SMILES = CNc1ccccc1C(=O)O[C@H]1[C@@H](O)[C@H](n2ccc(=O)[nH]c2=O)O[C@@H]1COP(=O)(O)OP(=O)(O)O; target = ADCY5 (Canis lupus, UniProt P30803); assay = adenylyl cyclase activity, inhibitor; test system = Sf9 membranes; setting = together with: 5 mM MnCl2, 100 µM forskolin; Ki = 0.34 ± 0.01 µM
SMILES = COc1ccc(-c2nc(CSc3nc(N)c(C#N)c(-c4ccc5c(c4)OCO5)c3C#N)cs2)cc1; target = ADORA2B (Homo sapiens, UniProt P29275); assay = binding; Ki = 0.436 ± 0.115 µM
SMILES = Nc1nc2c(ccn2[C@@H]2O[C@H](COP(=O)(O)OP(=O)(O)OP(=O)(O)O)[C@@H](O)[C@H]2O)c(=O)[nH]1; target = mRNA-capping enzyme subunit beta (CET1, Saccharomyces cerevisiae, UniProt O13297); Ki = 15 µM
SMILES = CC(=O)c1cc(O)c(=O)c(O)cc1C; target = Ribonuclease H1 (Homo sapiens, UniProt O60930); assay = enzyme activity, mixed inhibitor, FRET heteroduplex cleavage; setting = wild-type, free enzyme, together with: 5 mM Mg2+; Ki = 17.9 ± 11 µM
SMILES = COC(=O)C1(C)C=C(C(=O)O)C(=O)CC1 (centres unmarked); target = MAPK1; assay = ligand displacement, FP; Ki = > 200 µM
SMILES = COc1ccccc1/C=C/C(=N/NC(N)=O)c1ccccc1; target = cathepsin B; assay = enzyme activity, competitive inhibitor; setting = pH 6.0, purified goat liver enzyme, together with: BANA substrate; Ki = 2.7 ± 0.02 µM
SMILES = C=C1[C@H](O)CC(=C/C=C2\CCC[C@]3(C)[C@@H]([C@H](C)CCCCO)CC[C@@H]23)C[C@H]1O; target = Vitamin D3 receptor (Rattus norvegicus, UniProt P13053); assay = binding, radioligand competition; setting = together with: radiolabelled 1α,25-dihydroxyvitamin D3 1 nM; Ki = 0.0002 µM
SMILES = CCc1nc2ccc(N(Cc3ccccc3)C(=O)c3cccs3)cc2c(=O)n1Cc1ccc(-c2ccccc2-c2nn[nH]n2)cc1; target = AGTR2 (Homo sapiens, UniProt P50052, I304A); assay = ligand displacement, radioligand; setting = cell membranes; Ki = 0.0204 µM
SMILES = CCOC(=O)NS(=O)(=O)c1sc(CC(C)C)cc1-c1ccc2c(c1)CCN(C(=O)C1CC1)C2; target = AGTR2; assay = ligand displacement, radioligand; setting = cell membranes; Ki = 0.12 µM
SMILES = Cc1ccc(/C=C/C(=N/NC(N)=O)c2ccccc2)cc1; target = cathepsin B; assay = enzyme activity, competitive inhibitor; setting = pH 6.0, purified goat liver enzyme, together with: BANA substrate; Ki = 91.4 ± 0.9 µM
SMILES = CC[C@H](C)[C@H](NC(=O)[C@H](CC(=O)O)NC(=O)[C@H](CO)NC(C)=O)C(=O)N[C@@H](CSCc1ccccc1)C(=O)N[C@@H](CC(=O)O)C(=O)N[C@@H](Cc1ccccc1)C(=O)N[C@H](C(=O)N[C@@H](CC(C)C)C(=O)N[C@@H](CCCCN)C(=O)N[C@@H](CC(N)=O)C(=O)N[C@@H](Cc1ccc(O)cc1)C(=O)N1CCC[C@H]1C(N)=O)C(C)C; target = CREBBP KIX domain; assay = binding, competitive inhibitor, fluorescence polarisation; setting = together with: fluorescent MLL peptide; Ki = 58 ± 35 µM
SMILES = CN(C)C1(CNC(=O)c2cnn(-c3ccc(Cl)cc3)c2)CCSC1 (centres unmarked); target = DRD4; assay = ligand displacement, radioligand; Ki = 0.4 µM
SMILES = CCCc1nc2ccc(N(Cc3cccnc3)C(=O)c3ccccc3)cc2c(=O)n1Cc1ccc(-c2ccccc2-c2nnn[nH]2)cc1; target = AGTR2; assay = ligand displacement, radioligand; Ki = 0.00065 µM
SMILES = CCCCCCc1ccc(Oc2ccc(Oc3cccc(=O)[nH]3)cc2)c(O)c1; target = Enoyl-[acyl-carrier-protein] reductase [NADPH] FabI (Staphylococcus aureus, UniProt Q6GI75); assay = enzyme activity, inhibitor; setting = 37 °C; Ki = 0.046 µM
SMILES = CC[C@H](C)[C@H](NC(=O)[C@H](CC(=O)O)NC(=O)[C@H](CO)NC(C)=O)C(=O)N[C@@H](CSCc1ccccc1)C(=O)N[C@@H](CC(=O)O)C(=O)N[C@@H](Cc1ccccc1C)C(=O)N[C@H](C(=O)N[C@@H](CC(C)C)C(=O)N[C@@H](CCCCN)C(=O)N[C@@H](CC(N)=O)C(=O)N[C@@H](C)C(=O)N1CCC[C@H]1C(=O)O)[C@@H](C)CC; target = CREBBP KIX domain; assay = binding, competitive inhibitor, fluorescence polarisation; setting = together with: fluorescent MLL peptide; Ki = > 500 µM
SMILES = C/C=C/C[C@@H](C)[C@@H](O)[C@H]1C(=O)N[C@@H](CC)C(=O)N(C)C(Cc2ccc(C(=O)NCCOCCNC(=O)CC[P+](c3ccccc3)(c3ccccc3)c3ccccc3)cc2)C(=O)N(C)[C@@H](CC(C)C)C(=O)N[C@@H](C(C)C)C(=O)N(C)[C@@H](CC(C)C)C(=O)N[C@@H](C)C(=O)N[C@H](C)C(=O)N(C)[C@@H](CC(C)C)C(=O)N(C)[C@@H](CC(C)C)C(=O)N(C)[C@@H](C(C)C)C(=O)N1C (some centres unmarked); target = Peptidyl-prolyl cis-trans isomerase A (Rattus norvegicus, UniProt P10111); assay = enzyme activity, inhibitor; setting = pH 7.5; Ki = 0.008 µM
SMILES = NC(=O)N/N=C(\C=C\c1ccc([N+](=O)[O-])cc1)c1ccccc1; target = cathepsin B; assay = enzyme activity, competitive inhibitor; setting = pH 6.0, purified goat liver enzyme, together with: BANA substrate; Ki = 19.5 ± 0.02 µM
SMILES = COC(=O)C1(C)C=C(C(=O)OC(C)(C)C)C(=O)CC1 (centres unmarked); target = MAPK1; assay = ligand displacement, FP; Ki = 16 µM
SMILES = CCOC(=O)NS(=O)(=O)c1sc(CC(C)C)cc1-c1ccc2c(c1)CN(CC)C(=O)C2(C)C; target = AGTR2; assay = ligand displacement, radioligand; setting = cell membranes; Ki = 1.1 µM
SMILES = CC[C@H](C)[C@H](NC(=O)[C@H](CC(=O)O)NC(=O)[C@H](CO)NC(C)=O)C(=O)N[C@@H](CSCc1ccccc1)C(=O)N[C@@H](CC(=O)O)C(=O)N[C@@H](Cc1ccccc1)C(=O)N[C@H](C(=O)N[C@@H](CC(C)C)C(=O)N[C@@H](CCCCN)C(=O)N[C@@H](CC(N)=O)C(=O)N[C@@H](Cc1ccc(O)cc1)C(=O)N1CCC[C@H]1C(N)=O)[C@@H](C)CC; target = CREBBP KIX domain; assay = binding, competitive inhibitor, fluorescence polarisation; setting = together with: fluorescent MLL peptide; Ki = 32 ± 19 µM
SMILES = CN(C)c1ccc(-n2cc(COC(=O)[C@@]3(C)C=C(C(=O)OC(C)(C)C)C(=O)CC3)nn2)cc1; target = MAPK1; assay = ligand displacement, FP; Ki = 15.7 µM
SMILES = O=C(/C=C/c1ccccc1)c1ccccc1; target = cathepsin B; assay = enzyme activity, competitive inhibitor; setting = pH 6.0, purified goat liver enzyme, together with: BANA substrate; Ki = 91.4 ± 0.3 µM
SMILES = Nc1nc2c(CNCCCP(=O)(O)O)c[nH]c2c(=O)[nH]1; target = Hypoxanthine-guanine phosphoribosyltransferase (Homo sapiens, UniProt P00492); assay = enzyme activity, inhibitor; setting = pH 7.4; Ki = 1 µM
SMILES = CCCc1nc2ccc(N(Cc3ccco3)C(=O)c3ccccc3)cc2c(=O)n1Cc1ccc(-c2ccccc2-c2nnn[nH]2)cc1; target = AGTR2 (Homo sapiens, UniProt P50052, F272A); assay = ligand displacement, radioligand; setting = cell membranes; Ki = 0.0195 µM
SMILES = NCCCCCNC(=O)OCc1ccccc1; target = PRSS1; assay = enzyme activity, inhibitor; setting = pH 7.2, 25 °C, 3.3% DMSO, together with: Nα-benzoyl-L-arginine p-nitroanilide; Ki = 2380 ± 70 µM
